Experimental data from different studies.
Lines come from different studies, so protocols differ. Values joined by “and” are separate records of one study, mostly repeats; a detail may differ. ± marks the error that the study gave. Ends that are not written are not given here.
B1: protein R10A (Xanthomonas citri, UniProt A0AAI8ETV0); chain MIQDTRRAPARQPTDLLPVIDTLSEVQIGRVGNVSETGMLLLASVPLHDDALYQLRFSLPERVGRATEIDVGVHLLWSEAAHAPGQAWAGFRFLTMSEPHRQRLRAWIAEEHLAG
B2: muscarinic toxin 3 mature (UniProt P81031); chain LTCVTKNTIFGITTENCPAGQNLCFKRWHYVIPRYTEITRGCAATCPIPENYDSIHCCKTDKCNE
Chain of UniProt P08913 (whole entry, looked up): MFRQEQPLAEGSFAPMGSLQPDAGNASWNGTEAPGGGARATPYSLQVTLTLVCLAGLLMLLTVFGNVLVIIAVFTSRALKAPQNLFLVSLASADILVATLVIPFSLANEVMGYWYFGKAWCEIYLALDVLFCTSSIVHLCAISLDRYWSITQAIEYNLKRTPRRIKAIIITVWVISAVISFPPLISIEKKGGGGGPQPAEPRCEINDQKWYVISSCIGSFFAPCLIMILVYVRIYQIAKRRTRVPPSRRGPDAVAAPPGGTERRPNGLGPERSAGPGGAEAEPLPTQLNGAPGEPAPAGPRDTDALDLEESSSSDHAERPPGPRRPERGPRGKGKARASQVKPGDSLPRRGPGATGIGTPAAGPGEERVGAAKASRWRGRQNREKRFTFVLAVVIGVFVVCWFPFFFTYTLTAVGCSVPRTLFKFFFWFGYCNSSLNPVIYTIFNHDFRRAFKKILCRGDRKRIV
Chain of UniProt Q62897 (whole entry, looked up): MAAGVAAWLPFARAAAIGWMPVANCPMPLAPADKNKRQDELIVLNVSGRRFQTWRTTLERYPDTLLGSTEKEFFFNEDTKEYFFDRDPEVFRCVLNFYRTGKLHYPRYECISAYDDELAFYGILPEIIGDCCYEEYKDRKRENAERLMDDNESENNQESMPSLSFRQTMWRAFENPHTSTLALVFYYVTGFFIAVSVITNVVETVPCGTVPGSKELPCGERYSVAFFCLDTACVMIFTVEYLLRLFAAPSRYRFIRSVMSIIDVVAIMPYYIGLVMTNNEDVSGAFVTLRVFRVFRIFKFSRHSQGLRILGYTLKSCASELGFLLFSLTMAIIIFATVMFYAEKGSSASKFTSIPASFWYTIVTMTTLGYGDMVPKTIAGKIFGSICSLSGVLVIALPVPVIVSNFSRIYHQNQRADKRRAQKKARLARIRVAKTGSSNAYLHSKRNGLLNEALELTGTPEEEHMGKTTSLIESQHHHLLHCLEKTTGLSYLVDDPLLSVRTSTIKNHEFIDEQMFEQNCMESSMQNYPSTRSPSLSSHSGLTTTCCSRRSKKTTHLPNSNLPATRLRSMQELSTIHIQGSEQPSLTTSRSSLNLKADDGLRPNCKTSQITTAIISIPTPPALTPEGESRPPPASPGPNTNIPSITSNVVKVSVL
Chain of UniProt Q62976 (whole entry, looked up): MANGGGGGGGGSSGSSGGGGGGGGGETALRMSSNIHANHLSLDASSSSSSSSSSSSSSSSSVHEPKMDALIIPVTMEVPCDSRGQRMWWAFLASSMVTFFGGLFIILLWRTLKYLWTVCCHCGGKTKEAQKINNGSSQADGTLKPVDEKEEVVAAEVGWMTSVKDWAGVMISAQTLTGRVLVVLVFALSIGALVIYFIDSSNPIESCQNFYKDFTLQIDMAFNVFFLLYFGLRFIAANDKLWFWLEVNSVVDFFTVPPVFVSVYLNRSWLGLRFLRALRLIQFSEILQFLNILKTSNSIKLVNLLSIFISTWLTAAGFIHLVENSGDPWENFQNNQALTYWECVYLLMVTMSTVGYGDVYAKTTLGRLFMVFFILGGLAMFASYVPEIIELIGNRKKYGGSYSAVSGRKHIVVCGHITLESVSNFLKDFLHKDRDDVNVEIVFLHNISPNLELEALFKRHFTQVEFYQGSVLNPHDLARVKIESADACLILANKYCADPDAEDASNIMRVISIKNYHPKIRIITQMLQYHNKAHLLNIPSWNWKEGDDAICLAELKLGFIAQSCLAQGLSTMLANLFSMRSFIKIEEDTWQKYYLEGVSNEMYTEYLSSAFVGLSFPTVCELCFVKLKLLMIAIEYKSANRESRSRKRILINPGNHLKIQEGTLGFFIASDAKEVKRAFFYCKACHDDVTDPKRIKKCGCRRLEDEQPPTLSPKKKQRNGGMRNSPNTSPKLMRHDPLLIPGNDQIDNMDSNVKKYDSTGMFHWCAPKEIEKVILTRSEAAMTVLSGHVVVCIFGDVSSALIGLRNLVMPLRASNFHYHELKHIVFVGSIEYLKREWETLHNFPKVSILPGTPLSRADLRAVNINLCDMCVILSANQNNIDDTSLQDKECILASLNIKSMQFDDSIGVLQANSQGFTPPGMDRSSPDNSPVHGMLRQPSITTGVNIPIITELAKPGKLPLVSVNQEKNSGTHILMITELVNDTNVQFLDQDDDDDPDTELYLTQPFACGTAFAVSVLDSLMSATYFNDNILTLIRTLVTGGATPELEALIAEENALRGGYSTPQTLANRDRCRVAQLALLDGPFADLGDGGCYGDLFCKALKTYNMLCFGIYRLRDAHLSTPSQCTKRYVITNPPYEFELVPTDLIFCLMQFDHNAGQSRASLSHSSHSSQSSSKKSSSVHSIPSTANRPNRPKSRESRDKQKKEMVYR
Chain of UniProt Q03405 (whole entry, looked up): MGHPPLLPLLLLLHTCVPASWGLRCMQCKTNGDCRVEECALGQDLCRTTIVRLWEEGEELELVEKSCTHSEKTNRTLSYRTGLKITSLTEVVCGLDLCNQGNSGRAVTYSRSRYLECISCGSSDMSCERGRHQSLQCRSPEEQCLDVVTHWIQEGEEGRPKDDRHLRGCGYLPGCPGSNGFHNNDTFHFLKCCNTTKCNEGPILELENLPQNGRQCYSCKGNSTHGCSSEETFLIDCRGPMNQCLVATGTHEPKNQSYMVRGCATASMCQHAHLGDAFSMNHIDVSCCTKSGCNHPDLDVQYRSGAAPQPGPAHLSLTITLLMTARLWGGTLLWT
Chain of UniProt Q96AX9 (whole entry, looked up): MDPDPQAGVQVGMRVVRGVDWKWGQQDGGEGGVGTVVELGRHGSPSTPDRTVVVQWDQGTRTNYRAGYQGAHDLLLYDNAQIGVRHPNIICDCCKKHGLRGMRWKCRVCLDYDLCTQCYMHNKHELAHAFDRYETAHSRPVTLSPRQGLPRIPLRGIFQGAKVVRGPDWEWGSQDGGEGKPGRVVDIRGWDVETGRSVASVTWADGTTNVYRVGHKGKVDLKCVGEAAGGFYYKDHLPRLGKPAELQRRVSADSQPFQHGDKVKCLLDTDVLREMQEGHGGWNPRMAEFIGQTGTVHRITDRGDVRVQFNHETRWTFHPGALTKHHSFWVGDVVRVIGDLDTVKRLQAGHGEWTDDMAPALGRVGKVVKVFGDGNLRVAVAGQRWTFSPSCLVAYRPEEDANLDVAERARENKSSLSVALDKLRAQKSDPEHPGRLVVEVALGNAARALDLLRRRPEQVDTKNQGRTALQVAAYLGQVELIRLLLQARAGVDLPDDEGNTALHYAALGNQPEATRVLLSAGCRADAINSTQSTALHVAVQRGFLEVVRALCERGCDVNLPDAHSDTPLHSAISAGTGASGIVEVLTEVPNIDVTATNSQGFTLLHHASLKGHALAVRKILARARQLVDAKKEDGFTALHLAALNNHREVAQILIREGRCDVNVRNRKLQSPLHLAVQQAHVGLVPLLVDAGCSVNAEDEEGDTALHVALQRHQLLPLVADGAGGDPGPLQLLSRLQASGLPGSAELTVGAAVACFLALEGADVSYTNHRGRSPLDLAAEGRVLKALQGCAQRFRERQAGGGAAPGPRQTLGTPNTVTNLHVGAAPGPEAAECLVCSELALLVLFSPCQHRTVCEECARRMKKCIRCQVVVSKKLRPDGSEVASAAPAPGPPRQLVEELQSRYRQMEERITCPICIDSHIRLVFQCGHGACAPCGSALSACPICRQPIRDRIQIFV

SVASQSIIAY — response magnitude per positive donor (AIM; peptide, CD8+ T cells from PBMC, human donors; dose not given): 107
main protease (SARS-CoV-2) — dimer fraction (itself; native MS; 5 µM, apo): 69 ± 3%
BKRF4 fragment W84Y (Epstein-Barr virus) — Kd (H2A/H2B dimer (Homo sapiens); ITC; 25 °C, NaCl 0.5 M): 2500 nM
MnTx-1 mature (Pterinochilus murinus, UniProt C0HMD2) — IC50 (KCNA1 (Homo sapiens, UniProt Q09470); K+ current inhibition, inhibitor, patch-clamp; whole-cell): 1.1 nM
FolB (Mycobacterium tuberculosis, UniProt P9WNC5) — kcat/Km (Nc1nc2c(c(=O)[nH]1)N=C([C@H](O)[C@H](O)CO)CN2; steady-state kinetics; pH 7, 25 °C): 36000 ± 5500 M⁻¹ s⁻¹
B1 (protein R10A) — Kd (hemK (Xanthomonas citri, UniProt A0AAI7ZDL3); ITC): 190000 ± 148000 nM
ACE2/pIgR VHH6 Fc fusion ACE2 , Fc at C-terminus (Homo sapiens) — Kd (spike RBD RBD (SARS-CoV-2, UniProt P0DTC2); BLI): 26.2 nM
YYQLYSTQL — response magnitude per positive donor (AIM; peptide, CD8+ T cells from PBMC, human donors; dose not given): 109
B2 (muscarinic toxin 3 mature) — EC50 (ADRA2A (Homo sapiens, UniProt P08913); flow cytometry; HEK293): 12.6 nM and 18.3 nM and 18.5 nM
Rv1747 fragment (Mycobacterium tuberculosis) — Kd (pknF autophosphorylated 1-299, phosphorylated, sites unknown (Mycobacterium tuberculosis, UniProt P9WI75); ITC; 20 °C): 400 nM
PLAU two-chain form, DIP-inactivated — cell migration (PLAUR (Homo sapiens, UniProt Q03405); migration; MCF-7 M5; 10 nM, 6 h; higher = more migration): 2 fold
PaFS D92A (Diaporthe amygdali) — kcat (CC(C)=CCC/C(C)=C/COP(=O)(O)OP(=O)(O)O; steady-state kinetics): 0.26 ± 0.03 s⁻¹
ORF45 fragment (Kaposi's sarcoma-associated herpesvirus) — rupture force (H2A/H2B dimer (Homo sapiens); magnetic tweezers; outer wrap): 10 pN
QPLRKLCILHRNPGRCYQKIPAFYYNQKKKQCEGFTWSGCGGNSNRFKTIEECRRTCIRK (dendrotoxin I; ends and bridges not checked; cysteine pairing not given here; sequence looked up) — association rate decrease (Kcnma1 (Rattus norvegicus, UniProt Q62976); blocker, planar bilayer single channel; with: BP; reference: BP-unoccupied channel): 1.3 fold
JZTX-V (UniProt Q2PAY4) — τoff (Kcnd3 (Rattus norvegicus, UniProt Q62897); washout recovery, whole-cell patch clamp; exponential fit): 58.8 s
p2o (Trametes ochracea, UniProt Q7ZA32) — kcat (Nc1ccc2nc3ccc(N)cc3[s+]c2c1; steady-state kinetics; pH 6.5, 22 °C, apparent): 4.2 ± 0.1 s⁻¹
Gag-CFP/YFP, N-terminal myristoyl (HIV-1) — donor lifetime (itself; FLIM FRET; HEK293T; apparent, membrane pixels, in cells; lower = more FRET): 2340 ± 90 ps
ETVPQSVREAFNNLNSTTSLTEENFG (VP35 190-215 (Zaire ebolavirus); FITC label) — Kd (MIB2 1-836 (Homo sapiens, UniProt Q96AX9); FP; peptide): 5400 ± 900 nM

Some of these lines once more:
B1 (protein R10A) — Kd (hemK (Xanthomonas citri, UniProt A0AAI7ZDL3); ITC): 190000 ± 148000 nM
ACE2/pIgR VHH6 Fc fusion ACE2 , Fc at C-terminus (Homo sapiens) — Kd (spike RBD RBD (SARS-CoV-2, UniProt P0DTC2); BLI): 26.2 nM
YYQLYSTQL — response magnitude per positive donor (AIM; peptide, CD8+ T cells from PBMC, human donors; dose not given): 109
